Experimental data collected from several papers.
Each line is one published result; not all experiments were run side by side.
Target: Serine/threonine-protein kinase PAK 4 (PAK4, Homo sapiens, UniProt O96013)
UniProt O96013, sequence (whole entry, looked up): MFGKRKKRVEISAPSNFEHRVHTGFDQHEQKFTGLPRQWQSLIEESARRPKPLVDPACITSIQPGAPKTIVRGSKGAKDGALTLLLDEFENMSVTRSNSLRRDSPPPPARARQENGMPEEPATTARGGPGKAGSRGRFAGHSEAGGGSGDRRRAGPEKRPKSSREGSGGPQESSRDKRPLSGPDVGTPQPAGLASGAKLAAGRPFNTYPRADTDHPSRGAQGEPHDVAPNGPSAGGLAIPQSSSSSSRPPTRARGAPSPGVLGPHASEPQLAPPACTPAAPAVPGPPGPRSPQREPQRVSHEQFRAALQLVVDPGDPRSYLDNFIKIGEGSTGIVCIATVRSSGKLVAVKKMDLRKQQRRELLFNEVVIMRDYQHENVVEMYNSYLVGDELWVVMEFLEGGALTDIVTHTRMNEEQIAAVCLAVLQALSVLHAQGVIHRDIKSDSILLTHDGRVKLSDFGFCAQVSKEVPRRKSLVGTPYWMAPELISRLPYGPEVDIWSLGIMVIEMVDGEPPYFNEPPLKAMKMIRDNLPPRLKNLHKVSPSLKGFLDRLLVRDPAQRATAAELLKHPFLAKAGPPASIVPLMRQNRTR

SMILES	assay	setting	how to read	measurement	value
CN(C)CC#Cc1ccc2[nH]c3c(c2c1)-c1nc(N)ncc1CCC3	kinase activity, inhibitor, radiometric	1 µM, together with: ATP at Km		remaining activity	72%
C=CC(=O)N1CCC(C(=O)NCC(=O)N2CCN(c3nc(-c4cnc(N)nc4C(F)F)nc(N4CCOCC4)n3)CC2)CC1	KINOMEscan	1 µM		remaining binding	99%
COc1cc(-c2cncc3c2CN(C)Cc2cc(N4CCNCC4)ccc2-3)cc(OC)c1OC	kinase activity	1 µM, human enzyme, together with: ATP 10 µM	relative to: DMSO control	remaining activity	108%
COCCNc1nc2ccc(C#CC3(O)CCCCC3)cc2n1-c1ccnc(N)n1	enzyme activity, inhibitor, Z'-LYTE	1 µM	relative to: no-inhibitor control	remaining kinase activity	91.1%
C=CC(=O)N1CCC(COCC(=O)N2CCN(c3nc(-c4cnc(N)nc4C(F)F)nc(N4CCOC[C@@H]4C)n3)CC2)CC1	KINOMEscan	1 µM		remaining binding	88%
Cc1cc(Nc2cc(N3CCN(C)CC3)nc(Sc3ccc(NC(=O)C4CC4)cc3)n2)[nH]n1	kinase activity, KinaseProfiler	0.03 µM, species human	relative to: control	remaining activity	124%
COc1cc(F)ccc1-c1ncnc(Nc2cccc(C[S@](C)(=N)=O)c2)n1	kinase activity	10 µM, together with: 10 µM ATP		remaining activity	89%
O=C1NC(=O)/C(=C/c2ccc(-c3ccc(F)cc3O)o2)S1	enzyme activity	10 µM		remaining activity	65%
CN1CC(Oc2cnc(C#N)cc2-c2ccn3nc(NC(=O)C4CC4)cc3c2)C1	inhibitor, KinaseProfiler panel	1 µM		inhibition	9%
O=C(NC1CCC1)c1ccc2nc(-c3cccc(NS(=O)(=O)NCCN4CCCCC4)c3)cn2c1	enzyme activity	10 µM		remaining activity	100%

For quick reference, copied from above:
SMILES	assay	setting	how to read	measurement	value
COc1cc(F)ccc1-c1ncnc(Nc2cccc(C[S@](C)(=N)=O)c2)n1	kinase activity	10 µM, together with: 10 µM ATP		remaining activity	89%
